Measured values pooled from the literature.
Each numbered part is a random draw from the data of one study; scales do not carry over between parts. “And” joins repeats or separate records; there may be more than shown.
Chain of UniProt P10721 (whole entry, unmodified, looked up): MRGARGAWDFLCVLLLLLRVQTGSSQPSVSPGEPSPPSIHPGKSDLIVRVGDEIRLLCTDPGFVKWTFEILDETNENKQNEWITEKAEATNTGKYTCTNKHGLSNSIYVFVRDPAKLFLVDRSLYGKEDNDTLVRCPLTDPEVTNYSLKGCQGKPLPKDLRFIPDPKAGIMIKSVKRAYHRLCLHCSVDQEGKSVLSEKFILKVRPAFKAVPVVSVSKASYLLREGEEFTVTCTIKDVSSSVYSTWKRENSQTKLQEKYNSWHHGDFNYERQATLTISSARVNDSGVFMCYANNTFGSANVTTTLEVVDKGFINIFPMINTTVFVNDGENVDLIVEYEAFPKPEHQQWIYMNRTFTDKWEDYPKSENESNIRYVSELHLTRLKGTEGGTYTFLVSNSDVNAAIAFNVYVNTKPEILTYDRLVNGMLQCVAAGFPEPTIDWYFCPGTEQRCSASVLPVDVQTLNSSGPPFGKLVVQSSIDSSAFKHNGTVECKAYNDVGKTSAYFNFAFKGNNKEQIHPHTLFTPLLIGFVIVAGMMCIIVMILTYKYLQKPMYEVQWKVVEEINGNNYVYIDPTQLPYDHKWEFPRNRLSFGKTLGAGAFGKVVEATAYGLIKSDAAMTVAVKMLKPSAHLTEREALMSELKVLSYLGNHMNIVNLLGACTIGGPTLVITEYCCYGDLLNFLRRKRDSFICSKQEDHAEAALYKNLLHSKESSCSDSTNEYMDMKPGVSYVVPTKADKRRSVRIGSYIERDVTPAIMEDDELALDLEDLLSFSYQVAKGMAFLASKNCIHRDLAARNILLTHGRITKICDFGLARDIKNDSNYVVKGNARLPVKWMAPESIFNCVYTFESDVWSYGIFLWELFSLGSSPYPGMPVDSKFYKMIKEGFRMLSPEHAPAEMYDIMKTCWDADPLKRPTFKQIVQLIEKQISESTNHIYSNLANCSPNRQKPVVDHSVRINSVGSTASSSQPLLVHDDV
Chain of UniProt O75582 (whole entry, looked up): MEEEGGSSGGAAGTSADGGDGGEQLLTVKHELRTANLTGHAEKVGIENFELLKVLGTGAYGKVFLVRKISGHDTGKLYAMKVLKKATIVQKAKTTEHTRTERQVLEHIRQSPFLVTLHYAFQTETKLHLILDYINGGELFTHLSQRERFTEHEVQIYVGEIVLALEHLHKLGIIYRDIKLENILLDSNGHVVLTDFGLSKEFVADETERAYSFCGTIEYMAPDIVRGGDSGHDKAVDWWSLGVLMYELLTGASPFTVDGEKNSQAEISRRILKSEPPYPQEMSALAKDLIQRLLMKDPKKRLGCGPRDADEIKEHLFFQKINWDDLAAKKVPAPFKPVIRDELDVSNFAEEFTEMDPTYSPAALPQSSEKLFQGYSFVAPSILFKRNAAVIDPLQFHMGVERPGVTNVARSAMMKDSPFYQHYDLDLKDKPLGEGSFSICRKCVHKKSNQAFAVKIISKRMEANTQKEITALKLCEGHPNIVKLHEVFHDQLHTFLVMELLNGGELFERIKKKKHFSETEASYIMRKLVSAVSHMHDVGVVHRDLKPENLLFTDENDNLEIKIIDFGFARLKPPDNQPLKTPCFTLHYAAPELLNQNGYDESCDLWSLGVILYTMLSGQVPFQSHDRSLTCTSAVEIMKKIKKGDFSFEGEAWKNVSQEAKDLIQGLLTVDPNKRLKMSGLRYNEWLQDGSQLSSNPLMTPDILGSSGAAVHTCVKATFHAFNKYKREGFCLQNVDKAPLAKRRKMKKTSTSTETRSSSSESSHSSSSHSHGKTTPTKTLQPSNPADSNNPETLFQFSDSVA
Chain of UniProt Q07912 (whole entry, looked up): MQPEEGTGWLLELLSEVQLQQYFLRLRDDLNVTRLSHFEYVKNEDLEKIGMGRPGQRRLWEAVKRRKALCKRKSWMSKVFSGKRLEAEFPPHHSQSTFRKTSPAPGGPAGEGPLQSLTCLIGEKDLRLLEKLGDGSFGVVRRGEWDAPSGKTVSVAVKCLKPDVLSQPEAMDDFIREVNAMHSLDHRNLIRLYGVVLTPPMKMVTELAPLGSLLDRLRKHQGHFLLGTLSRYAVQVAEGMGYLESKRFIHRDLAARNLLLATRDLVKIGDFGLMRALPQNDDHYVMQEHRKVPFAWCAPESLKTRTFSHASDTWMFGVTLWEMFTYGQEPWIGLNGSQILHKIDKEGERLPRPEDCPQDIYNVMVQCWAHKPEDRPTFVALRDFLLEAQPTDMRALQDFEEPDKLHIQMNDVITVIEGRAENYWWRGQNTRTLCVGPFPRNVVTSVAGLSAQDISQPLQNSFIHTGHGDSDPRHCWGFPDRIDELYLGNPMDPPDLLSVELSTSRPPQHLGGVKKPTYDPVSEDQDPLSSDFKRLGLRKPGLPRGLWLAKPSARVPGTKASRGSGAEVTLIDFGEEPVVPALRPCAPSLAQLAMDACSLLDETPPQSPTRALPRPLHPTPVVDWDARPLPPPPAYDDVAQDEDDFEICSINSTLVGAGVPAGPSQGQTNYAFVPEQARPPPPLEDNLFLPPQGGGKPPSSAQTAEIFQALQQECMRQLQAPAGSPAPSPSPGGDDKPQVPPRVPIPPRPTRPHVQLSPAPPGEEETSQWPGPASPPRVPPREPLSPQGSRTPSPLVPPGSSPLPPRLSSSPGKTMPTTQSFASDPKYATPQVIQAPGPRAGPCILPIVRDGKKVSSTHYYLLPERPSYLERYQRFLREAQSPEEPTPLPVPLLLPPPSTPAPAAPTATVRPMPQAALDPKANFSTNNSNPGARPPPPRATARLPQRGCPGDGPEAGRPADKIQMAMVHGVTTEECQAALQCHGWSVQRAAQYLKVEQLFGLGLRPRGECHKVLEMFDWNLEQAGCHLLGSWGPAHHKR
Chain of UniProt Q9BXA7 (whole entry, looked up): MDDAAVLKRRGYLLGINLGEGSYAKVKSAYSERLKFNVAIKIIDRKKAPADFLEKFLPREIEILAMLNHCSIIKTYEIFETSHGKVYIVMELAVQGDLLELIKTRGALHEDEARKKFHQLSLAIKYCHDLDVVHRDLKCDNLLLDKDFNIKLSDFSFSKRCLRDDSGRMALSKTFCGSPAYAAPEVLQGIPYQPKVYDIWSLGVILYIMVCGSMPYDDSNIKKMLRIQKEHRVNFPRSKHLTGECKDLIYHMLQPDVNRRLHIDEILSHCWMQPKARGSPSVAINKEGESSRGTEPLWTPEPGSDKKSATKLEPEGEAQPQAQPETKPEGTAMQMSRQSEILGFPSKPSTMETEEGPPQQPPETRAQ
Chain of UniProt Q96BR1 (whole entry, looked up): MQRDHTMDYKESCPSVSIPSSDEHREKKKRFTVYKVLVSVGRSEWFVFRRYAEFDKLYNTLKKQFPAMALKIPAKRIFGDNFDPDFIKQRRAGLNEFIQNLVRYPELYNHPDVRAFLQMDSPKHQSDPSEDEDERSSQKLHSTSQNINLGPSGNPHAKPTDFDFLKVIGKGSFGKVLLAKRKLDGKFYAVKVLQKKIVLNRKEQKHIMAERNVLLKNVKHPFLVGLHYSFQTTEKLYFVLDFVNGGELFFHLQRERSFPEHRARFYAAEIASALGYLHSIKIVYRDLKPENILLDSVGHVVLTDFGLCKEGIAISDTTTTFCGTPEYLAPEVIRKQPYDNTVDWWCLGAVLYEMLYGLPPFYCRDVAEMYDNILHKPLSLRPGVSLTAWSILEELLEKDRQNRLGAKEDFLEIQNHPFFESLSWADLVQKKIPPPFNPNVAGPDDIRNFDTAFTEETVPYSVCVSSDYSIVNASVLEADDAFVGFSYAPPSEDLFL
Chain of UniProt P07947 (whole entry, looked up): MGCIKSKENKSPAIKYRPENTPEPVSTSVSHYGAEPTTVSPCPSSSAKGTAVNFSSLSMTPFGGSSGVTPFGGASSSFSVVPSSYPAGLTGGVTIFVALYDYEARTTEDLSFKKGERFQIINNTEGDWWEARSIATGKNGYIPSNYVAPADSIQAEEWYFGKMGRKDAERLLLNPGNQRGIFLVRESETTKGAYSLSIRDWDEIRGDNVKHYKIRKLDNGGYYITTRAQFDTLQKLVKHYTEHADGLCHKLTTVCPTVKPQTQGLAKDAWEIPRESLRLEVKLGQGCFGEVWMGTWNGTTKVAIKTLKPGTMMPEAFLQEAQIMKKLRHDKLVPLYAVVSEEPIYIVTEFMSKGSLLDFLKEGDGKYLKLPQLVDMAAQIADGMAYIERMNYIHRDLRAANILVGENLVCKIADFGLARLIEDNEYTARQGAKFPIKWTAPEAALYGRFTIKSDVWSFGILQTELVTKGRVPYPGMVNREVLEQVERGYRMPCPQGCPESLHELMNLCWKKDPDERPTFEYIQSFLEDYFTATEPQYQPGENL
Chain of UniProt Q15349 (whole entry, looked up): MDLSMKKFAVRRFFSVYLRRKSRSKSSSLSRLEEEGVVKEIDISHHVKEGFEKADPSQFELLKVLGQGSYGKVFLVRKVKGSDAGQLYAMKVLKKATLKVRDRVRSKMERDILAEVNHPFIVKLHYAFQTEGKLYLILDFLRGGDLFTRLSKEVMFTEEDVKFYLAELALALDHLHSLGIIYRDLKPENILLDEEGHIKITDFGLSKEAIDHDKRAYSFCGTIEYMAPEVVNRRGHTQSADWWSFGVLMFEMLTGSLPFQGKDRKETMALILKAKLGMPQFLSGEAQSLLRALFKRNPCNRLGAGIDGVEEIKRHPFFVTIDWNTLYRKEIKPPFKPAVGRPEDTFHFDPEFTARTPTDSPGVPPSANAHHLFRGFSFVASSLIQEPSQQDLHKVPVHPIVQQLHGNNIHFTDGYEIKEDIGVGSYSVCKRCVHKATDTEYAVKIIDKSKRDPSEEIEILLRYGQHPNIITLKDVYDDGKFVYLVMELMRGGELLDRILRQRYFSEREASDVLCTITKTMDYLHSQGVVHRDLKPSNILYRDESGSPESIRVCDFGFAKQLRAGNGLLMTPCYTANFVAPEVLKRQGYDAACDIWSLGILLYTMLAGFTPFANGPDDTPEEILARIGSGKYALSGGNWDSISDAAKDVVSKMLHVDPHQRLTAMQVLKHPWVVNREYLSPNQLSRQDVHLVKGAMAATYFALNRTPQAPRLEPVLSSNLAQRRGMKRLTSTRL

Study 1 — host: mouse; matrix: microsomes or S9; concentration: 2 µM; time: 0.5 h
`Cc1nc(S(=O)(=O)NCc2c3c(nn2C)CCC3)cn1C` gave a remaining compound of 52.2%.
`Clc1ccccc1Sc1c(C2CC2)n[nH]c1C1CC1` gave a remaining compound of 1.55%.
For `COc1nc(OC)c(C(C)C)c(-c2nnn(C)n2)n1`, the remaining compound was 0.719%.
With `Cc1c(-c2cc(-c3cnn(C)c3C)n(Cc3ccc(Cl)c(Cl)c3)n2)cnn1C` the remaining compound was 0.407%.
The remaining compound of `CC(=O)c1ccc(S(=O)(=O)N(CCCO)Cc2cc3c(C)cc(C)cc3[nH]c2=O)cc1` is reported as 16.6%.
`CCc1csc(CC(=O)N2CCCn3nccc32)n1` gave a remaining compound of 46.4%.

Study 2 — method: PRP chromatography estimate; matrix: 1,9-decadiene/PBS; pH: 7.4
`CC(C)C[C@@H]1NC(=O)[C@H](Cc2cscn2)NC(=O)[C@H](Cc2cscn2)NC(=O)[C@@H](CC(C)C)NC(=O)[C@@H](CCC(=O)N2CCCC2)NC(=O)[C@H](CC(C)C)NC(=O)[C@@H](CC(C)C)NC1=O` has a logD of -0.673.
`CC(C)C[C@@H]1NC(=O)[C@H](C)NC(=O)[C@@H](CC(C)C)NC(=O)[C@H](C)NC(=O)[C@@H](CCC(=O)N2CCCC2)NC(=O)[C@H](CC(C)C)NC(=O)[C@@H](CC(C)C)NC1=O` has a logD of -1.68.
`CC(C)C[C@@H]1NC(=O)[C@@H](C)NC(=O)[C@@H](CC(C)C)NC(=O)[C@H](C)NC(=O)[C@H](C)NC(=O)[C@H](CC(C)C)NC(=O)[C@@H](CC(C)C)NC1=O` gave a logD of -1.86.
The logD of `CC(C)C[C@@H]1NC(=O)[C@H](CC(C)C)NC(=O)[C@H](CC(C)C)NC(=O)[C@H](C(C)C)NC(=O)[C@@H](Cc2cscn2)NC(=O)[C@H](Cc2cscn2)NC(=O)[C@H](CCC(=O)N2CCCC2)NC1=O` is reported as -1.62.
`CC(C)C[C@@H]1NC(=O)[C@H](CC(C)C)NC(=O)[C@@H](CC(C)C)NC(=O)[C@H](C)NC(=O)[C@@H](Cc2cscn2)NC(=O)[C@@H](CC(C)C)NC(=O)[C@H](C)NC1=O` gave a logD of -1.19.
For `CC(C)C[C@@H]1NC(=O)[C@H](C)NC(=O)[C@H](CCC(=O)N2CCCC2)NC(=O)[C@H](CC(C)C)NC(=O)[C@@H](Cc2cscn2)NC(=O)[C@H](CC(C)C)NC(=O)[C@@H](CC(C)C)NC1=O`, the logD was -1.7.

Study 3 — read-out: cell-free assay; method: competition with immobilised ligand; concentration: 1 µM
Compound: CN(C)C(=O)Cn1cc(-c2nc([C@@](C)(c3ccc(-c4cnc(N)nc4)cc3)C3CC3)no2)cn1
It gave 100% for remaining binding (Ribosomal protein S6 kinase alpha-2, C-terminal kinase domain (RPS6KA2, Homo sapiens, UniProt Q15349)).
It gave 80% for remaining binding (Tyrosine-protein kinase ABL1, non-phosphorylated (ABL1, Homo sapiens, UniProt P00519, H396P)).
Protein kinase C delta type (PRKCD, Homo sapiens, UniProt Q05655) — remaining binding: 98%.
The remaining binding was 90% (Serine/threonine-protein kinase PAK 2 (PAK2, Homo sapiens, UniProt Q13177)).
It gave 90% for remaining binding (Serine/threonine-protein kinase 4 (STK4, Homo sapiens, UniProt Q13043)).
It gave 76% for remaining binding (Serine/threonine-protein kinase Sgk3 (SGK3, Homo sapiens, UniProt Q96BR1)).
For Non-receptor tyrosine-protein kinase TNK1 (TNK1, Homo sapiens, UniProt Q13470): remaining binding read 100%.
Ephrin type-B receptor 1 (EPHB1, Homo sapiens, UniProt P54762) — remaining binding: 100%.
cGMP-dependent protein kinase 1 (PRKG1, Homo sapiens, UniProt Q13976) — remaining binding: 100%.
For RAF proto-oncogene serine/threonine-protein kinase (RAF1, Homo sapiens, UniProt P04049): remaining binding read 100%.
For Epidermal growth factor receptor (EGFR, Homo sapiens, UniProt P00533, L861Q): remaining binding read 100%.
For Activated CDC42 kinase 1 (TNK2, Homo sapiens, UniProt Q07912): remaining binding read 91%.
Mast/stem cell growth factor receptor Kit (KIT, Homo sapiens, UniProt P10721) — remaining binding: 87%.
The remaining binding was 80% (Mast/stem cell growth factor receptor Kit (KIT, Homo sapiens, UniProt P10721, A829P)).
The remaining binding was 98% (Serine/threonine-protein kinase BRSK1 (BRSK1, Homo sapiens, UniProt Q8TDC3)).
The remaining binding was 100% (Epidermal growth factor receptor (EGFR, Homo sapiens, UniProt P00533, del752-759)).
Ephrin type-A receptor 5 (EPHA5, Homo sapiens, UniProt P54756) — remaining binding: 100%.
Serine/threonine-protein kinase NLK (NLK, Homo sapiens, UniProt Q9UBE8) — remaining binding: 95%.
The remaining binding was 98% (Epidermal growth factor receptor (EGFR, Homo sapiens, UniProt P00533, G719S)).
The remaining binding was 63% (Mast/stem cell growth factor receptor Kit (KIT, Homo sapiens, UniProt P10721, L576P)).
It gave 93% for remaining binding (Cytoplasmic tyrosine-protein kinase BMX (BMX, Homo sapiens, UniProt P51813)).
For Tyrosine-protein kinase Yes (YES1, Homo sapiens, UniProt P07947): remaining binding read 94%.
The remaining binding was 80% (Serine/threonine-protein kinase 38 (STK38, Homo sapiens, UniProt Q15208)).
Mast/stem cell growth factor receptor Kit (KIT, Homo sapiens, UniProt P10721, V559D/V654A) — remaining binding: 93%.
For Dual specificity protein kinase CLK4 (CLK4, Homo sapiens, UniProt Q9HAZ1): remaining binding read 99%.

Study 4 — cell line: mouse MPNST tumor cells; method: high-content nuclear imaging; refers to: cell number; concentration: 10 µM; time: 12 h; setting: mean of 2 replicates; reference: plate mean; reading: higher = more cells
The nuclei count of `CN(CCCN1c2ccccc2CCc2ccccc21)CC(=O)c1ccc(Cl)cc1` is reported as 3.89 z-score.
The nuclei count of `c1cc(CN2CCCNCCNCCCNCC2)ccc1CN1CCCNCCNCCCNCC1` is reported as 1.56 z-score.
`O=C(CCCCCCC(=O)Nc1cccnc1)NO` has a nuclei count of 0.826 z-score.
`Cn1c(=O)c2c(ncn2CC(=O)O)n(C)c1=O` gave a nuclei count of 0.452 z-score.
For `O=C(O)CC1CC(c2ccccc2)=NO1` (stereo not shown), the nuclei count was 2.01 z-score.

Study 5 — read-out: enzyme activity; concentration: 5 µM
Structure (SMILES): O=C(Nc1cnn(-c2csc(C(=O)NC3COC3)c2)c1)Nc1ccccc1Cl
Casein kinase I isoform alpha-like (CSNK1A1L, Homo sapiens, UniProt Q8N752); inhibitor — remaining activity: 109%.
For Tyrosine-protein kinase ABL2 (ABL2, Homo sapiens, UniProt P42684); reference: untreated control: remaining activity read 92.3%.
Ribosomal protein S6 kinase alpha-5 (RPS6KA5, Homo sapiens, UniProt O75582); reference: untreated control — remaining activity: 87.7%.
It gave 90.9% for remaining activity (SRSF protein kinase 3 (SRPK3, Homo sapiens, UniProt Q9UPE1); reference: untreated control).
The remaining activity was 97.5% (Testis-specific serine/threonine-protein kinase 1 (TSSK1B, Homo sapiens, UniProt Q9BXA7); reference: untreated control).

Study 6 — method: Incucyte 3D growth; concentration: 30 µM; reading: higher = more growth
SMILES: CC(C)(C(=O)O)[C@H](NC(=O)Cc1cccc(I)c1)c1ccc2oc(=O)[nH]c2c1
For MEL-JUSO; 252.52 h: spheroid area read 2.41e+07 a.u. and 3.07e+07 a.u. and 1.81e+07 a.u. and 1.8e+07 a.u. and 1.91e+07 a.u. and 1.69e+07 a.u.
The spheroid area was 1.38e+07 a.u. and 1.76e+07 a.u. and 1.91e+07 a.u. and 2.27e+07 a.u. and 1.88e+07 a.u. and 1.36e+07 a.u. (A375; 36.52 h).
The spheroid area was 1.5e+08 a.u. and 1.42e+08 a.u. and 1.74e+08 a.u. and 1.47e+08 a.u. and 1.35e+08 a.u. and 1.43e+08 a.u. (A375; 522.52 h).
It gave 2.92e+07 a.u. and 4.11e+07 a.u. and 3.58e+07 a.u. and 3.73e+07 a.u. and 4.28e+07 a.u. and 2.69e+07 a.u. for spheroid area (IPC-298; 294 h).
For NCI-H358; 78 h: spheroid area read 4.21e+06 a.u. and 3.79e+06 a.u. and 3.53e+06 a.u.
